Measured values of several laboratories.
Compare with care: the assays were run in different laboratories. Numbers after ± are the reported error.
B1: enzyme K184A (Streptomyces parvus, UniProt A0A7K3RVR3); chain MYVPEQYRPRDASWTLELIRSNPLALLVTNGPQHPWATHVPVLFAEEPDGPEGPDGLDATGDDLVGRRLLGHLNLMNPHWEALAGAGHALLVFQGPGSYVSPTVYETAPAAPTWDFTSVHVHGALRLIDDPDDLRKIVQATVRAYEREVGTDWDMSESLEYFERLLPGVRGFEIKIESVDSMFALSQEQLPETVTKVIDSFRRSDGGRRQELATMIERAASD
B2: enzyme Y7F (Streptomyces parvus, UniProt A0A7K3RVR3); chain MYVPEQFRPRDASWTLELIRSNPLALLVTNGPQHPWATHVPVLFAEEPDGPEGPDGLDATGDDLVGRRLLGHLNLMNPHWEALAGAGHALLVFQGPGSYVSPTVYETAPAAPTWDFTSVHVHGALRLIDDPDDLRKIVQATVRAYEREVGTDWDMSESLEYFERLLPGVRGFEIKIESVDSMFKLSQEQLPETVTKVIDSFRRSDGGRRQELATMIERAASD

B1 (enzyme K184A)  kcat (N[C@@H](CCCNO)C(=O)O; steady-state kinetics; pH 8, 25 °C, together with: heme): 0.0497 s⁻¹
N=C(N)NCCC[C@@H]1NC(=O)[C@H](CCCCNC(=O)CCC(NC(=S)Nc2ccc(CC3CN(CC(=O)O)CCN(CC(=O)O)CCN(CC(=O)O)CCN3CC(=O)O)cc2)C(=O)NCCCC[C@@H]2NC(=O)[C@@H](Cc3ccc(O)cc3)NC(=O)[C@H](CC(=O)O)NC(=O)CNC(=O)[C@H](CCCNC(=N)N)NC2=O)NC(=O)[C@@H](Cc2ccc(O)cc2)NC(=O)[C@H](CC(=O)O)NC(=O)CNC1=O (some centres unmarked) [scandium-44 labelled]  tissue uptake (ex vivo γ-counting; female athymic nude mice, U-87 MG xenograft, heart; intravenous, 4 h, together with: cRGD 50 mg/kg blocking): 0.024 ± 0.006 %ID/g
B2 (enzyme Y7F)  kcat (N[C@@H](CCCNO)C(=O)O; steady-state kinetics; pH 8, 25 °C, together with: heme): 2.47 s⁻¹
CCCC[C@H](NC(=O)CN1CCC(NC(=O)CN2CCN(CC(N)=O)CCN(CC(N)=O)CCN(CC(N)=O)CC2)CC1)C(=O)N[C@H]1CC(=O)NCCCC[C@@H](C(N)=O)NC(=O)[C@H](Cc2c[nH]c3ccccc23)NC(=O)[C@H](CCCNC(=N)N)NC(=O)[C@@H](Cc2ccccc2)NC(=O)[C@H](Cc2c[nH]cn2)NC1=O [lead-203 labelled]  tissue uptake (male C57BL/6J mice B16-F10 tumour, kidneys; intravenous, 20 pmol, 2 h): 13.9 ± 2.84 %ID/g
CC(C)C[C@H](NC(=O)[C@@H](N)Cc1ccccc1)C(=O)N[C@@H](C)C(=O)N[C@H]1CSCc2cccc(n2)CSC[C@@H](C(=O)N[C@H](C(=O)NCC(=O)N[C@@H](CO)C(=O)N[C@@H](Cc2c[nH]c3ccccc23)C(=O)N[C@@H](CCCCNC(=O)CN2CCN(CC(=O)O)CCN(CC(=O)O)CCN(CC(=O)O)CC2)C(N)=O)[C@@H](C)O)NC(=O)[C@H](Cc2c[nH]cn2)NC(=O)[C@H]([C@@H](C)O)NC(=O)[C@H](CCC(=O)O)NC(=O)[C@@H]2CCCN2C1=O [lutetium-177 labelled]  intact fraction (radio-HPLC; PBS; 2 h, 37 °C): > 99%
O=C1NC2(CC2)COc2ncc(F)cc2[C@H]2COCCN2c2ccn3ncc1c3n2  organ-to-body weight ratio (Sprague-Dawley rat, male, kidneys; oral, 2.5 mg/kg/day, 4 weeks dosing, end of recovery): 0.637 ± 0.07%
CC[C@H](C)[C@@H]([C@@H](CC(=O)N1CCC[C@H]1[C@H](OC)[C@@H](C)C(=O)N[C@H](C)[C@@H](O)c1ccccc1)OC)N(C)C(=O)[C@@H](NC(=O)[C@H](C(C)C)N(C)C(=O)OCc1ccc(NC(=O)[C@H](CCCNC(N)=O)NC(=O)[C@@H](NC(=O)CCCCCN2C(=O)CC(SC[C@H](NC(=O)[C@H](CC(=O)O)NC(=O)[C@H](Cc3ccc(O)cc3)NC(=O)[C@H](Cc3c[nH]c4ccccc34)NC(=O)[C@@H](N)CCCNC(=N)N)C(=O)O)C2=O)C(C)C)cc1)C(C)C (some centres unmarked)  concentration (C57BL/6 mouse, healthy, liver; intraperitoneal, 2.5 mg/kg, 0.167 h): not detected
CC[C@H](C)[C@H](NC(=O)[C@H](CCC(N)=O)NC(=O)[C@H](Cc1c[nH]cn1)NC(=O)[C@@H](NC(=O)[C@H](Cc1c[nH]c2ccccc12)NC(=O)[C@H](CO)NC(=O)[C@H](CCC(N)=O)NC(=O)[C@@H]1CCCN1C(=O)[C@H](Cc1c[nH]cn1)NC(=O)[C@@H](NC(=O)[C@H](CCCNC(=N)N)NC(=O)[C@H](CC(C)C)NC(=O)[C@H](Cc1ccc(O)cc1)NC(=O)[C@H](CCCNC(=N)N)NC(=O)[C@@H](NC(=O)[C@H]1CC[C@H](CN)CC1)[C@@H](C)O)[C@@H](C)CC)C(C)C)C(=O)O  viability (rat cortical neurons; MTT; 1.0 mg/ml, 24 h, 37 °C): 5 to 10%
CC[C@H](C)[C@H](NC(=O)[C@H](CO)NC(=O)[C@H](Cc1ccc(O)cc1)NC(=O)[C@H](Cc1ccc(O)cc1)NC(=O)[C@H](CC(N)=O)NC(=O)CNC(=O)[C@H](CO)NC(=O)[C@H](Cc1ccc(O)cc1)NC(=O)[C@H](CO)NC(=O)[C@H](CO)NC(=O)[C@H](CC(N)=O)NC(=O)COCCOCCNC(=O)CN1CCN(CC(=O)O)CCN(CC(=O)O)CCN(CC(=O)O)CC1)C(=O)N[C@@H](CC(C)C)C(N)=O [copper-64 labelled]  tumour uptake (dynamic PET; KPC mouse, pancreatic cancer model, blood; intravenous, 0.6 min, 49 days after tamoxifen): 33.6 %ID/mL
CC(C)C[C@H](NC(=O)[C@@H]1CCCN1C(=O)[C@H](CCCCN)NC(=O)[C@@H](N)CO)C(=O)N1CCC[C@H]1C(=O)N[C@@H](CCC(=O)O)C(=O)N[C@H](C(=O)N[C@H](C(=O)N[C@@H](CC(=O)O)C(=O)N[C@@H](CCC(=O)O)C(=O)N[C@@H](Cc1ccc(O)cc1)C(=O)NCC(=O)NCCOCCOCCOCCOCCOCCOCCOCCOCCOCCOCCOCCOCCC(=O)N[C@@H](CCCCNC(=O)CC[C@H](C(=O)O)N1CCN(CC(=O)O)CCN(CC(=O)O)CC1)C(=O)N1CCN(CCCN(C)c2ccc3nccc(C(=O)NCC(=O)N4CC(F)(F)C[C@H]4C#N)c3c2)CC1)[C@@H](C)O)C(C)C [copper-64 labelled]  SUVmean (PET; NMRI nude mouse, HT-1080 hFAP xenograft, tumour; intravenous, maximum tumour uptake): 1.6 SUV
CC[C@H](C)[C@H](NC(=O)[C@H](CCC(N)=O)NC(=O)[C@H](Cc1c[nH]cn1)NC(=O)[C@@H](NC(=O)[C@H](Cc1c[nH]c2ccccc12)NC(=O)[C@H](CO)NC(=O)[C@H](CCC(N)=O)NC(=O)[C@@H]1CCCN1C(=O)[C@H](Cc1c[nH]cn1)NC(=O)[C@@H](NC(=O)[C@H](CCCNC(=N)N)NC(=O)[C@H](CC(C)C)NC(=O)[C@H](Cc1ccc(O)cc1)NC(=O)[C@H](CCCNC(=N)N)NC(=O)[C@@H](NC(=O)[C@H](CS)NC(=O)[C@H](CCCCN)NC(=O)[C@H](Cc1ccccc1)NC(=O)[C@@H](NC(=O)[C@H](CCCCN)NC(=O)[C@H]1CC[C@H](CN)CC1)[C@@H](C)O)[C@@H](C)O)[C@@H](C)CC)C(C)C)C(=O)O  viability (HUVEC; MTT; 1.0 mg/ml, 24 h, 37 °C): 5 to 10%

Repeated from above:
N=C(N)NCCC[C@@H]1NC(=O)[C@H](CCCCNC(=O)CCC(NC(=S)Nc2ccc(CC3CN(CC(=O)O)CCN(CC(=O)O)CCN(CC(=O)O)CCN3CC(=O)O)cc2)C(=O)NCCCC[C@@H]2NC(=O)[C@@H](Cc3ccc(O)cc3)NC(=O)[C@H](CC(=O)O)NC(=O)CNC(=O)[C@H](CCCNC(=N)N)NC2=O)NC(=O)[C@@H](Cc2ccc(O)cc2)NC(=O)[C@H](CC(=O)O)NC(=O)CNC1=O (some centres unmarked) [scandium-44 labelled]  tissue uptake (ex vivo γ-counting; female athymic nude mice, U-87 MG xenograft, heart; intravenous, 4 h, together with: cRGD 50 mg/kg blocking): 0.024 ± 0.006 %ID/g
